Published values gathered from unrelated publications.
Each numbered part is a random draw from the data of one study; scales do not carry over between parts.

Series 1 — method: competition protein-binding microarray; molecule type: double-stranded DNA, one strand shown; sample: in vitro; tested at: 2 µM; added: Pho4 competitor, 0.05 µM; direction: higher = stronger binding
Target: Centromere-binding protein 1, full length, His-tagged (CBF1, Saccharomyces cerevisiae, UniProt P17106, residues 1-351)
Sequence of UniProt P17106 (whole entry, looked up): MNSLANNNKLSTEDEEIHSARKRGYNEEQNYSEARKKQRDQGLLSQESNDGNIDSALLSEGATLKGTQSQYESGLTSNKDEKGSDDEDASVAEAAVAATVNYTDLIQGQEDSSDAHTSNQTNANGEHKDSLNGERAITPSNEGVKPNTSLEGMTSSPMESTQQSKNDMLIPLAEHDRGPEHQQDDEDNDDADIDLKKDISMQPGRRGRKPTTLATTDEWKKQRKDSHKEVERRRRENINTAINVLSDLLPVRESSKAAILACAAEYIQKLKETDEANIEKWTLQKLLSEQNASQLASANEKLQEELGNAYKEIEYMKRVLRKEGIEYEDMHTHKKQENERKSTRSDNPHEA
Notes: whole 60-bp probe, lowest competitor level
The fluorescence intensity of `CACCACTTCTCAAAGAACGTGCAAATAACTCTTCCAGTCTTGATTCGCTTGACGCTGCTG` is reported as 149 a.u.
With `ATTTTCGAGGGTTACGTCGTGACTCGTATGCTTTCTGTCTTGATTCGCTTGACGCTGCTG` the fluorescence intensity was 158 a.u.
With `TGCGCAACAACTTGGTTCGTGGGTGTATGTCTAGAAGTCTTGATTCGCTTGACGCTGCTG` the fluorescence intensity was 62.7 a.u.
`GCTGAAGTTATTGACTCCGTGGGTAATAAGGTCTCAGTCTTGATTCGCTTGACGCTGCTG` gave a fluorescence intensity of 70.1 a.u.
The fluorescence intensity of `CGCTTAACATATTCCCATGTGGTTTATTTTCGTATAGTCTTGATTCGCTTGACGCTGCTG` is reported as 123 a.u.

Series 2 — method: universal PBM; molecule type: double-stranded DNA, one strand shown; sample: in vitro; tested at: not given; direction: higher = stronger binding
Target: Sal-like protein 4, full length isoform B (SALL4, Homo sapiens, UniProt Q9UJQ4-2, residues 1-616)
Notes: 8-mer, flanks averaged, mean of replicates
`CGATCTTA` has an E-score of -0.0416.
With `ACGGCCTC` the E-score was -0.25.
For `CCAGACAC`, the E-score was -0.143.
`ACACGCGC` has an E-score of -0.179.

Series 3 — method: RNA Bind-n-Seq; molecule type: RNA; sample: in vitro; tested at: 365 nM; relative to: no-protein control; direction: higher = stronger binding
Target: RNA binding protein fox-1 homolog 2, RRM domain, GST-SBP tag (RBFOX2, Homo sapiens, UniProt O43251-10, residues 100-194)
Notes: natural RNA segment, single round, ends assumed
Construct (chain): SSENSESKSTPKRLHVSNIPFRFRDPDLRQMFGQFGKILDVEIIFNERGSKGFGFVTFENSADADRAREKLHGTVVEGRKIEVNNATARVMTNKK
For `GGGAGUUCUACAGUCCGACGAUCGGAUUGGACACAUACACAGCAUGUUCUUUCCAGCUCCUUGUCACCGAGAGAUAGAAAAUCUUUAUCUGUCCUUCUUGCUCCCUGACAUUAAUAAAUUUUUCUGAAGUCUCUGGAAUUCUCGGGUGCCAA`, “RBNS enrichment (R)” read 13.
Under “RBNS enrichment (R)”, `GGGAGUUCUACAGUCCGACGAUCUCCUCUAUCCGUAAGUGUCCUUCCAUGCAAGGUCCCACUCUAGGUGAUAGACAGGGACCCCUUCUACUGAACCUUUGAGGAAAGGAGGAAGGAAGAAAUGCGUUUAGAUCUGGAAUUCUCGGGUGCCAA` is recorded as 0.282.
`GGGAGUUCUACAGUCCGACGAUCCUCAAGUUCUUUCUCUUGGUUAGUCCAGCACACCACUUUGUUCUCUUGGGCCGUAUCUGCUGUGUCACAGGACAAACACUAGGUCUUAUACAGCCCCCUUUUUUCCCCCUUGGAAUUCUCGGGUGCCAA` — result for “RBNS enrichment (R)”: 0.912.
Under “RBNS enrichment (R)”, `GGGAGUUCUACAGUCCGACGAUCUAACCACUUGGGCUAGGACACAGGAGGAAAGGAAGGCACUGUAUUUCCUAUGAGCUCUCUGCUCAGAGCAGCUGUCUGUGGUCCCGUGGGUCCUGGAUUCUGUGAUGGUAUGGAAUUCUCGGGUGCCAA` is recorded as 0.261.

Single results of other studies
`PhoQ, residues 284 288 289 292 302 303 SLCLSL` has a fold induction of 5.49 (PhoP, residues 12 14 15 18 19 FWNTL (Escherichia coli, UniProt P23836); Sort-seq, measured: YFP reporter; E. coli; PhoQ-PhoP variant library, added: 10 µM Mg2+; relative to: high Mg2+ state, higher = stronger signaling).
